Measurements from different studies.
Numbered parts are unrelated; each lists some results of a single study. Changes are numbered by the printed parent chain.

Series 1 — technique: DHFR PCA, deep sequencing; sample: yeast; together with: (+)-ABA 1.4 µM; reference: wild-type fitted maximum; direction: higher = stronger binding
Target: ABI1, truncated, D143A, DHFR fusion (Arabidopsis thaliana)
Notes: methotrexate growth selection, single substitutions
Parent: PYL1, truncated, DHFR fusion (Arabidopsis thaliana); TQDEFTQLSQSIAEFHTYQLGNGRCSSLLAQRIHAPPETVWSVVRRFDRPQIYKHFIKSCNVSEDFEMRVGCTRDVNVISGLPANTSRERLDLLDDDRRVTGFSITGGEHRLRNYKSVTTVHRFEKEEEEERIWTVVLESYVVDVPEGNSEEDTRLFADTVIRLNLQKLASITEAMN; partner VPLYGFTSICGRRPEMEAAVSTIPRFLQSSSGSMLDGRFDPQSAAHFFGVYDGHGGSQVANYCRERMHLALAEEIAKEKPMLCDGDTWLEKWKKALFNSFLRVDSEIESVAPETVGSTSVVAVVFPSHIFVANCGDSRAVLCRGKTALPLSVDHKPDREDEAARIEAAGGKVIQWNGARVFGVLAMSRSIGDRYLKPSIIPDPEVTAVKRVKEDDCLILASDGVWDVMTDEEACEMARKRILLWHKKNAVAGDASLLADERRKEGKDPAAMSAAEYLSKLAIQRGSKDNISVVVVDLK
Substitution | relative binding score [%]
E38F | 6.52
G23L | 9.57
T73W | 36.3
V142R | 15.5
M68R | -0.262
Q2I | 77.1
S9F | 17.6
A175M | 41.8

Series 2 — technique: aptamer microarray, sandwich; molecule type: DNA with 2'F-ANA; sample: in vitro; tested at: 200 nM; together with: Cy3 exosite-II aptamer, 400 nM; direction: higher = stronger binding; sequence: GGTTGGTGTGGTTGG
Target: Prothrombin, mature alpha-thrombin (F2, Homo sapiens, UniProt P00734)
Notes: whole 15-mer aptamer, many near background
Modification | mean fluorescence intensity [a.u.]
2'F-ANA at 2 3 4 5 6 7 11 13 14 | 49.4
2'F-ANA at 1 2 3 4 5 6 12 13 14 | 77.3
2'F-ANA at 1 6 7 11 12 13 14 15 | 67.9
2'F-ANA at 1 3 4 5 8 9 14 15 | 46.4
2'F-ANA at 1 2 3 5 11 15 | 53
2'F-ANA at 1 3 4 5 6 9 13 14 15 | 51.5
2'F-ANA at 2 4 7 8 11 12 13 15 | 371

Series 3 — target: CCNE1, cyclin fold, Cln2 fusion (human); technique: yeast growth competition, sequencing; sample: yeast; notes: weak parent motif; reference: not given; direction: higher = stronger binding
Parent: E2F7 docking peptide (human); SSAQRRLEIPSGG
Substitution | normalised enrichment score
Q4A | 0.743
L7A | -0.0666
R5K I9L | -0.00997
S2A | -0.493

Single results of other studies
Molecule | target | assay | system | conditions | scale | endpoint | result
PhoQ, residues 284 288 289 292 302 303 TLASMF | PhoP, residues 12 14 15 18 19 NQGLL (Escherichia coli, UniProt P23836) | Sort-seq, item: YFP reporter | E. coli | PhoQ-PhoP variant library, together with: 10 µM Mg2+ | reference: high Mg2+ state, higher = stronger signaling | fold induction | 5.66
